Assay results pooled from the literature.
Each line is one published result; not all experiments were run side by side.
Chain of UniProt Q16620 (whole entry, looked up): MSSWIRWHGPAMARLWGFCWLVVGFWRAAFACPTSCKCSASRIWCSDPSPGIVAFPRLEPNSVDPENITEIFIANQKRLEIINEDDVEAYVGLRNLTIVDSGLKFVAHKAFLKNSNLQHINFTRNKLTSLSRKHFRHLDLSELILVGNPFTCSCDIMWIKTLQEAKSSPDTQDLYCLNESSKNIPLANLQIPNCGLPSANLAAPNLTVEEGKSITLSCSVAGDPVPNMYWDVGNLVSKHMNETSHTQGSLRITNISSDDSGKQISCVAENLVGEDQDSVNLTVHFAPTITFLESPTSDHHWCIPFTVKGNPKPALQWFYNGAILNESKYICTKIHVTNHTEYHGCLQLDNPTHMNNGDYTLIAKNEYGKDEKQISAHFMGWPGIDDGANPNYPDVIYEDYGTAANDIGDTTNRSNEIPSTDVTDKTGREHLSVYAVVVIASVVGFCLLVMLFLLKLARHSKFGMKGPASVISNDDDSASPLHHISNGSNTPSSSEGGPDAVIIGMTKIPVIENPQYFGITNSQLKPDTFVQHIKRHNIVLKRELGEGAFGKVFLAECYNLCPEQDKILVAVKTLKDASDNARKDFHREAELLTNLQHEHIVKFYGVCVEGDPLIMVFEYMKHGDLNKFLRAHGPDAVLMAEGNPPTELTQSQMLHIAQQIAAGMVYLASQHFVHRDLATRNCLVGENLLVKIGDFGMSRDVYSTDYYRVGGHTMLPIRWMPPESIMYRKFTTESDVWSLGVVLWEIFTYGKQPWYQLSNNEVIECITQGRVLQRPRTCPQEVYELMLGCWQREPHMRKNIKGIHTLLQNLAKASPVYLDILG

SMILES	target or system	assay	test system	conditions	measurement	result
CCOC(=O)c1cn(CC)c2cc(N3CCCCCC3)c(F)cc2c1=O	PFF0160c (Plasmodium falciparum, UniProt Q08210, E182D)	enzyme activity, inhibitor, absorbance			IC50	> 10 µM
[2H]c1c([2H])c([C@]2([2H])CCCN2C(=O)C(C)(C)Oc2ccc3cn[nH]c3c2)c([2H])c([2H])c1C([2H])([2H])[2H]	NTRK2 (Homo sapiens, UniProt Q16620)	binding, competition with immobilised ligand		1 µM	remaining binding	85%
N.N.[Cl][Pt][Cl]	OCI-LY19	cell growth or viability, ATP luminescence		72 h	IC50	0.18 µM
O=C1CCP(c2ccccc2)CC1	SW480	cell growth or viability, MTT		72 h	IC50	94.3 µM
COC(=O)c1cc(-c2cccc(NC(=S)Nc3ccc(C)cc3)c2)on1	Klebsiella pneumoniae	microbial growth, broth dilution	BAA1705		MIC	> 64 µg/mL
Cc1cc(N(CCOS(C)(=O)=O)CCOS(C)(=O)=O)ccc1C=O	786-0	cell growth or viability			IC50	0.267 µg/mL
CN[C@@H]1C[C@H]2O[C@@](C)([C@@H]1OC)n1c3ccccc3c3c4c(c5c6ccccc6n2c5c31)C(=O)NC4	MP41	cell growth or viability, ATP luminescence		72 h	IC50	0.271 µM
O=C1CCP(=[Se])(c2ccccc2)CC1	SW480	cell growth or viability, MTT		72 h	IC50	88.1 µM
COc1ccc(-c2c(-c3ccc(C#N)c(F)c3)nc(N3CCC(N)CC3)n(C)c2=O)cc1F	U2OS	cell growth or viability, resazurin			IC50	47 µM
COc1c(C)c2c(c(O)c1C/C=C(\C)CCC(=O)O)C(=O)OC2	BT-20	cell growth or viability			IC50	2.95 µM
Cc1cc(N(CCO)CCO)ccc1C(=O)O	786-0	cell growth or viability			IC50	> 10 µg/mL
CC(=N)S	THLE-2	cell growth or viability, MTT			IC50	132 µM
COc1cc2cc(c1Cl)N(C)C(=O)C[C@H](OC(=O)[C@H](C)N(C)C(=O)CCS)[C@]1(C)O[C@H]1[C@H](C)[C@@H]1C[C@@](O)(NC(=O)O1)[C@H](OC)/C=C/C=C(\C)C2	HUVEC	cell growth or viability, SRB		48 h	IC50	0.0129 µM
O=C1CCP(=S)(c2ccccc2)CC1	SW480	cell growth or viability, MTT		72 h	IC50	5.1 µM
COC(=O)c1cc(-c2cccc(NC(=S)Nc3ccc([N+](=O)[O-])cc3)c2)on1	Klebsiella pneumoniae	microbial growth, broth dilution	BAA1705		MIC	> 64 µg/mL
CC(=O)c1c(C)c2cnc(Nc3ccc(C4CCN(CCS(C)(=O)=O)CC4)cn3)nc2n(C2CCCC2)c1=O	ZR-75-1	cell growth or viability, ATP luminescence		72 h	IC50	0.203 µM
CC[C@H](Nc1nc(NCc2cnc(C)cc2C)c2ncn(C(C)C)c2n1)[C@@H](C)O	HD-MB03	cell growth or viability		7 days	IC50	0.382 µM
